Assay results of several laboratories.
Each line is one published result; not all experiments were run side by side. ± gives the spread as reported.

Nc1cnn2ccc(-c3ccc4c(c3)CN([C@H]3CCC(=O)NC3=O)C4=O)nc12 — Dmax (Cereblon/Casein kinase I alpha (CSNK1A1/CRBN, Homo sapiens, UniProt P48729+Q96SW2); protein level, degrader, luciferase; MOLT-4): 31%
CC(=O)NCCN(CCC(=O)NCCN(CCC(=O)NCCN(CCC(=O)NCCC(N)=O)C(=O)[C@@H](N)Cc1ccccc1)C(=O)[C@@H](N)CCCNC(=N)N)C(=O)[C@@H](N)Cc1ccccc1 — heat capacity change ΔCp (HIV-1 TAR RNA; concentration not given): -2.34 ± 0.43 kJ/mol/K
O=C(O)C1OC(Oc2cccc(-c3nc(N4CCOCC4)c4oc5ncccc5c4n3)c2)C(O)C(O)C1O (stereo not drawn) — substrate inhibition constant (UGT1A7 (Homo sapiens, UniProt Q9HAW7); glucuronidation, substrate, recombinant enzyme): 271 ± 123 µM
CC(C=O)Cc1ccc(C(C)(C)C)cc1 (stereo not drawn) — fold increase (Olfactory receptor 2A7 (OR2A7, Homo sapiens, UniProt Q96R45); GFP reporter, agonist; yeast olfactory receptor sensor; relative to: DMSO): > 2 fold
CC(=O)NCCN(CCC(=O)NCCN(CCC(=O)NCCN(CCC(=O)NCCC(N)=O)C(=O)[C@@H](N)CCCCN)C(=O)[C@@H](N)Cc1ccccc1)C(=O)[C@@H](N)Cc1ccccc1 — heat capacity change ΔCp (HIV-1 TAR RNA; concentration not given): -2.91 ± 0.38 kJ/mol/K
CNC(=O)C[C@H](Cc1ccc(C#N)cc1)NC(=O)c1cc(-c2ccc(CN[C@H](C)c3ccc(C)cc3)o2)ccc1Cl — FRAP recovery half-time (ATAD2 (Homo sapiens, UniProt Q6PL18); MCF7; 1 µM, 1 h): 16.5 ± 3.2 s
CNc1ccccc1C(=O)O[C@H]1C[C@H](n2cnc3c(N)ncnc32)O[C@@H]1COP(=O)(O)OP(=O)(O)O — pocket forward rate constant (Unconventional myosin-Va (Gallus gallus, UniProt Q02440, D297C/G292C/I296C/S293C/V295G); stopped-flow FRET; 15 °C, added: MgCl2 2 mM): 0.74 ± 0.39 s⁻¹
C=C1CN(S(=O)(=O)c2ccc(C)cc2)CCCN(Cc2ccccc2)CCCN(S(=O)(=O)c2ccc(C)cc2)C1 — protein level ratio (Inactive tyrosine-protein kinase 7 (PTK7, Homo sapiens, UniProt Q13308); SILAC mass spectrometry; SUP-T1, crude membrane fraction; 10 µM, 17 h, reverse labelling; relative to: DMSO over compound): 2.49
NCCCC[C@H](NC(=O)[C@H](C/C=C/C[C@H](NC(=O)[C@@H]1CCCN1)C(=O)N[C@@H](CCCCN)C(=O)NCCCN)NC(=O)[C@@H]1CCCN1)C(=O)NCCCN — residence time (HIV-1 frameshift site RNA; SPR): 35 s
COc1cc(/C=C2/SC(=S)N(CC(=O)Nc3ccccn3)C2=O)cc(OC)c1OC — remaining activity (CD38 (Homo sapiens, UniProt P28907); hydrolase activity, fluorometric; 50 µM, added: ε-NAD+ substrate; relative to: untreated): 80.7 ± 3.7%
O=C(c1cc2c(s1)CCCCC2)N1CCC(n2c(=O)[nH]c3ccccc32)CC1 — maximal current density (Trpc6 (Mus musculus, UniProt Q61143); ion current, agonist, whole-cell patch clamp; 10 µM, wild type): 95.6 ± 14.6 pA/pF
Cc1ccc2ccc3ccc(C)nc3c2n1.Cc1ccc2ccc3ccc(C)nc3c2n1.O.[Cl-].[Cl-].[Cl-].[Yb+3] — Förster critical distance (Albumin (ALB, Bos taurus, UniProt P02769); FRET; 25 °C, excitation 280 nm): 2.3 nm

A few entries again:
CNC(=O)C[C@H](Cc1ccc(C#N)cc1)NC(=O)c1cc(-c2ccc(CN[C@H](C)c3ccc(C)cc3)o2)ccc1Cl — FRAP recovery half-time (ATAD2 (Homo sapiens, UniProt Q6PL18); MCF7; 1 µM, 1 h): 16.5 ± 3.2 s
O=C(c1cc2c(s1)CCCCC2)N1CCC(n2c(=O)[nH]c3ccccc32)CC1 — maximal current density (Trpc6 (Mus musculus, UniProt Q61143); ion current, agonist, whole-cell patch clamp; 10 µM, wild type): 95.6 ± 14.6 pA/pF
